Results gathered from unrelated publications.
Lines come from different studies, so protocols differ. “And” joins repeats or separate records; there may be more than shown. Numbers after ± are the reported error.
Genome polyprotein NS3 helicase domain: Genome polyprotein, NS3 helicase domain (Hepatitis C virus genotype 1b, UniProt Q9WMX2)
SRC SH3-SH2-kinase domain: Proto-oncogene tyrosine-protein kinase Src, SH3-SH2-kinase domain (SRC, Gallus gallus, UniProt P00523)
FGFR3: Fibroblast growth factor receptor 3 (FGFR3, Homo sapiens, UniProt P22607)

| Compound | target | test | system | setting | IC50 |
| --- | --- | --- | --- | --- | --- |
| O=C(Nc1cccc(C(=O)Nc2ccc(S(=O)(=O)O)c3cc(S(=O)(=O)O)cc(S(=O)(=O)O)c23)c1)Nc1cccc(C(=O)Nc2ccc(S(=O)(=O)O)c3cc(S(=O)(=O)O)cc(S(=O)(=O)O)c23)c1 | Genome polyprotein NS3 helicase domain | helicase activity, molecular beacon helicase |  | added: DNA substrate | 2.6 ± 0.4 µM |
| Cc1ccc2oc(-c3c4c(N)n[nH]c(=O)c4nn3-c3ccc(NC(=O)/C=C/CN(C)C)cc3)c(C)c2c1 | IGF1R (Homo sapiens, UniProt P08069) | enzyme activity, inhibitor, ELISA |  |  | > 1 µM |
| CN1C(=O)/C=C/C(=O)N[C@@H](CC2CCCCC2)C(=O)N[C@@H](Cc2ccc(F)cc2)C(=O)N[C@@H](Cc2ccc([N+](=O)[O-])cc2)C(=O)NCCC[C@H]1C(=O)O | SRC SH3-SH2-kinase domain | enzyme activity, inhibitor, Z'-LYTE FRET |  | Src residues 83-533, added: 50 µM ATP | ≤ 0.004 µM |
| Cc1nn(-c2ccccc2)nc1CNS(=O)(=O)c1cccc2ccccc12 | Trypanothione synthetase (Trypanosoma brucei, UniProt Q586P2) | enzyme activity, inhibitor |  |  | > 100 µM |
| O=C(O)c1cc(S(=O)(=O)Nc2c(F)cccc2F)ccc1O | DNA repair protein RAD52 homolog, with RPA and ssDNA (RAD52, Homo sapiens, UniProt P43351) | inhibitor, FRET |  |  | 28.9 ± 5.5 µM |
| CCC(NC(=O)C(CC(C)C)NC(=O)NCc1ccccc1)C(=O)C(=O)NCc1cc(F)cc(OC)c1 (centres unmarked) | Calpain-2 catalytic subunit (Capn2, Mus musculus, UniProt O08529) | enzyme activity, inhibitor | mouse pons-cerebellum membranes | added: calcium 2 mM | 0.092 µM |
| CC(OCCCCCN1C[C@H](O)[C@@H](O)[C@H](O)[C@H]1CO)C(C)(C)C (some centres unmarked) | Ugcg (Mus musculus, UniProt O88693) | enzyme activity in cells, inhibitor, fluorescence |  |  | 6 µM |
| CCOc1cncc(-c2ccc(NC(=O)C(CC)c3ccnc(NS(=O)(=O)C4CC4)n3)nc2)n1 (centres unmarked) | Ctps2 (Mus musculus, UniProt P70303) | enzyme activity, inhibitor, mass spectrometry |  |  | 0.126 µM |
| CC(=O)OCC1C=C(C2(C)CCCCC2)CCC1COC(C)=O (single isomer, unassigned; (+)) | PPIF (Homo sapiens, UniProt P30405) | enzyme activity, inhibitor |  |  | 0.48 µM |
| CC(C)c1ccc(CN2CCN(CC(=O)c3ccc4[nH]c(=O)[nH]c4c3)CC2)cc1 | APOBEC3G (Homo sapiens, UniProt Q9HC16) | enzyme activity, inhibitor |  | pH 6 | 70 µM |
| O=C1NC(=O)/C(=C/c2ccc(C(=O)NC[C@@H]3C[C@@H](SC(c4ccccc4)(c4ccccc4)c4ccccc4)CN3C(=O)c3ccccc3C(=O)c3ccc(F)cc3F)cc2)S1 | PLA2G4A (Homo sapiens, UniProt P47712) | enzyme activity, inhibitor, LC-MS, item: lysophosphatidylcholine |  | added: PAPC substrate | 1.32 µM and 1.83 µM |
| CCOC(=O)Cn1nnc2ccccc21 | Xanthine dehydrogenase/oxidase, oxidase form (XDH, Bos taurus, UniProt P80457) | enzyme activity, inhibitor |  |  | ≤ 487 µM |
| C=CC(=O)N1CCc2ccc(-n3c(=O)ccc4cnc5ccc(-c6cnn(C)c6)cc5c43)cc21 | ITK (Homo sapiens, UniProt Q08881) | enzyme activity, inhibitor |  |  | 2.83 µM |
| Nc1nc(-c2cccc(Br)c2)cs1 | Capsid scaffolding protein, protease domain (Human herpesvirus 8 type P, UniProt Q2HRB6) | protease activity, inhibitor |  | added: fluorogenic peptide substrate | 151 µM |
| CC1CC(=O)c2c(OCC(=O)N3CCC(C(=O)Nc4ccccc4)CC3)ccc(Cl)c21 (centres unmarked) | Trypanothione synthetase (Trypanosoma brucei brucei, UniProt Q586P2) | enzyme activity, BIOMOL Green phosphate release |  | 1 h preincubation | 18.4 ± 2.5 µM |
| CC1=CC(=C(c2cc(C)c(O)c(C(=O)O)c2)c2cc(C)c(O)c(C(=O)O)c2)C=C(C(=O)O)C1=O | DNMT1 (Homo sapiens, UniProt P26358) | enzyme activity, inhibitor, radiometric |  |  | 4.79 µM |
| Nc1nc(Cl)nc2c1ncn2Cc1cc(OCC(F)F)cc(-c2cccnc2F)c1 | PDE8A (Homo sapiens, UniProt O60658) | enzyme activity, inhibitor, radiometric |  |  | 0.0059 µM |
| Cc1nc(Nc2ncc(C(=O)Nc3c(C)cccc3Cl)s2)cc(N2CCN(CCOC(=O)CCCCCCCCCCN)CC2)n1 | ABL1 (Homo sapiens, UniProt P00519) |  |  |  | 0.0049 µM |
| Cc1ccccc1-c1cc(N2CCN(C(=O)CCC(=O)O)CC2)ccc1N(C)C(=O)C(C)(C)c1cc(C(F)(F)F)cc(C(F)(F)F)c1 | TACR1 (Homo sapiens, UniProt P25103) | nuclear ERK activity, antagonist, FRET biosensor | HEK293T | 30 to 90 min preincubation, added: substance P 10 nM | 0.692 µM |
| CC(=O)c1ccc(S(=O)(=O)NCc2csc(-c3ccccc3)n2)cc1 | Trypanothione synthetase (Trypanosoma brucei, UniProt Q586P2) | enzyme activity, inhibitor |  |  | 8.7 µM |
| C[C@@H](O)[C@@H]1NC(=O)[C@H](CCCCN)NC(=O)[C@@H](Cc2c[nH]c3ccccc23)NC(=O)[C@H](Cc2ccc(O)cc2)NC(=O)[C@H](NC(=O)[C@@H](N)Cc2ccc(Cl)cc2)CSSC[C@@H](C(=O)N[C@@H](Cc2ccc3ccccc3c2)C(N)=O)NC1=O | SSTR1 (Homo sapiens, UniProt P30872) | ligand displacement, radioligand |  | cell membranes | > 1 µM |
| NC(=O)[C@@H]1CCCNC(=O)[C@H](Cc2ccc([N+](=O)[O-])cc2)NC(=O)[C@H](Cc2ccco2)NC(=O)[C@H](CC2CC2)NC(=O)/C=C/C(=O)N1 | SRC SH3-SH2-kinase domain | enzyme activity, inhibitor, Z'-LYTE FRET |  | Src residues 83-533, added: 50 µM ATP | 0.25 ± 0.03 µM |

| Compound | target | test | system | setting | IC50 |
| --- | --- | --- | --- | --- | --- |
| Nc1ncnc2c1c(-c1ccc(Oc3ccccc3)cc1)nn2C1CCCC1 | Tyrosine-protein kinase HCK, SH2 (HCK, Homo sapiens, UniProt P08631, Q523E/Q524E/Q525I) | enzyme activity, inhibitor |  |  | 0.027 µM |
| CN(C(=O)c1ccn2ncc(-c3ccc(C(N)=O)cc3)c2c1)c1ccc(C#N)cn1 | MMP8 (Homo sapiens, UniProt P22894) | enzyme activity, inhibitor |  |  | > 30 µM |
| CC(=O)c1ccc2c(c1)sc1nc(=O)c(C#N)cn12 | DNA gyrase (gyrA/gyrB, Escherichia coli, UniProt P0AES4+P0AES6) | enzyme activity, inhibitor |  |  | 3.17 µM |
| CC1=CC(C)=[N+]2C1=C(CCCC(=O)NCCCC[C@H](NC(=O)N[C@@H](CCC(=O)O)C(=O)O)C(=O)O)c1c(C)cc(C)n1[B-]2(F)F | FOLH1 (Homo sapiens, UniProt Q04609) | ligand displacement in cells, radioligand |  |  | 0.188 µM |
| Cc1nc(C)c(S(=O)(=O)NCc2nn(-c3ccccc3)nc2C)s1 | Trypanothione synthetase (Trypanosoma brucei, UniProt Q586P2) | enzyme activity, inhibitor |  |  | 2.2 µM |
| CC(C)C[C@H](NC(=O)[C@H](CO)NC(=O)[C@@H](NC(=O)[C@@H]1CCCN1C(=O)[C@H](CCCNC(=N)N)NC(=O)[C@H](CCC(=O)O)NC(=O)[C@H](CCCCN)NC(=O)[C@H](CCCNC(=N)N)NC(=O)[C@H](CCCNC(=N)N)NC(=O)CNC(=O)[C@H](C)NC(=O)[C@@H](N)Cc1ccc(O)cc1)[C@@H](C)O)C(=O)N[C@@H](CC(N)=O)C(=O)N[C@H](C(=O)N[C@@H](Cc1ccccc1)C(=O)N1CCC[C@H]1C(=O)O)C(C)C | Mitogen-activated protein kinase 14 (Rattus norvegicus, UniProt P70618, D315S/D316E/E317A) | kinase activity, inhibitor, competitive kinase |  |  | > 100 µM |
| NS(=O)(=O)c1ccc(-n2nc(C(F)(F)F)cc2-c2ccc(F)cc2F)cc1 | Cyclooxygenase-2 (Canis lupus familiaris, UniProt Q8SPQ9) | PGE2 formation, inhibitor | dog whole blood | 24 h, 37 °C, added: LPS | 2.8 µM |
| NC(=O)[C@@H]1CCCNC(=O)[C@H](Cc2ccc([N+](=O)[O-])cc2)NC(=O)[C@H](Cc2ccc(F)cc2)NC(=O)[C@H](CC2CCCCC2)NC(=O)/C=C/C(=O)N1 | SRC SH3-SH2-kinase domain | enzyme activity, inhibitor, Z'-LYTE FRET |  | Src residues 83-533, added: 50 µM ATP | ≤ 0.004 µM |
| C[C@@H](Oc1cncc(-c2cnc(N)nc2)c1)c1c(Cl)ccc(F)c1Cl | Phosphatidylinositol 3,4,5-trisphosphate 5-phosphatase 1, Ptase-C2 domains (INPP5D, Homo sapiens, UniProt Q92835) | enzyme activity, inhibitor |  |  | 79.4 µM |
| CCNC(=S)NCC | Urea transporter 2 (Rattus norvegicus, UniProt Q62668) | urea transport, inhibitor | MDCK expressing rat UT-A1 | 20 min | > 25000 µM |
| O=c1c2cc3ccccc3cc2[nH]c(=S)n1CCc1ccccc1 | Genome polyprotein, protease (Hepatitis C virus genotype 1b, UniProt O92972) | enzyme activity, inhibitor, FRET |  |  | 31.9 µM |
| CC(C)C(O)C(NC(=O)[C@H](Cc1ccc(O)cc1)NC(=O)C(Cc1ccc(O)cc1)[N+](C)(C)C)C(=O)N[C@@H](C)C(=O)O (some centres unmarked) | ACE (Homo sapiens, UniProt P12821) | enzyme activity, inhibitor |  |  | > 10 µM |
| CCN(CC)c1ccc(-c2nc3ccc(C)c(S(=O)(=O)O)c3s2)cc1 | Genome polyprotein NS3 helicase domain | helicase activity, inhibitor, MBHA |  |  | 33 ± 24 µM |
| COc1cc(Cc2c[nH]c3ncc(C(F)(F)F)cc23)cc(OC)c1 | FGFR3 | enzyme activity, inhibitor |  |  | 0.025 µM |
| O=c1cc(-c2ccc(O)c(O)c2)oc2cc(O[C@@H]3O[C@H](CO)[C@@H](O)[C@H](O)[C@H]3O)cc(O)c12 | Dopamine beta-hydroxylase (Homo sapiens, UniProt P09172) | enzyme activity, inhibitor |  |  | 0.041 µM |
| CC(C)CCCc1ccc2c(c1)C(=O)C(Br)=C(Br)C2=O | DNA topoisomerase IB (Leishmania donovani, UniProt A0A3Q8IHS4+Q8WQM6) | DNA relaxation activity, inhibitor |  | added: supercoiled plasmid DNA | 13.5 ± 0.6 µM |
| Cc1cc(C)c(CNC(=O)c2c(O)c(O)cc3c(O)c(-c4c(C)cc5c(C(=O)NCc6c(C)cc(C)cc6C)c(O)c(O)cc5c4O)c(C)cc23)c(C)c1 | Bcl-2-like protein 10 (Homo sapiens, UniProt Q9HD36) | binding, inhibitor, fluorescence polarization |  | added: fluorescent BH3 Bid peptide | ~1 µM |
| CC[C@H](C)[C@H](NC(=O)[C@H](CO)NC(=O)[C@H](CCC(=O)O)NC(=O)[C@@H](N)CC(C)C)C(=O)N[C@@H](Cc1ccccc1)C(=O)N[C@@H](CCCNC(=N)N)C(=O)N[C@@H](CO)C(=O)N[C@@H](CC(C)C)C(=O)N[C@@H](CC(C)C)C(=O)N[C@@H](Cc1ccccc1)C(=O)N[C@@H](CCCNC(=N)N)C(=O)N[C@H](C(=O)N[C@@H](CCSC)C(=O)O)C(C)C | N-formyl peptide receptor 2, deglycosylated (FPR2, Homo sapiens, UniProt P25090) | binding | HEK293 glycosidase F treated | added: [3H]LXA4 | ~0.01 µM |
| CNC(=O)c1ccc(Oc2nc3c(c(=O)n(C)c(=O)n3C)n2CCC(C)C)cc1 | HPGD (Homo sapiens, UniProt P15428) |  |  |  | > 57 µM |
| O=C1Nc2ccc(-c3ccc(C(=O)N4CCCCC4)cc3)cc2/C1=C/c1ccc(N2CCNCC2)cc1 | FGFR3 | enzyme activity, inhibitor |  |  | 0.566 µM |
| NC(=O)[C@@H]1CCCNC(=O)[C@H](Cc2ccc([N+](=O)[O-])cc2)NC(=O)[C@H](Cc2ccc(O)cc2)NC(=O)[C@H](CC2CCCCC2)NC(=O)/C=C/C(=O)N1 | SRC SH3-SH2-kinase domain | enzyme activity, inhibitor, Z'-LYTE FRET |  | Src residues 83-533, added: 50 µM ATP | 0.79 ± 0.005 µM |
| COc1ccc(CNC(=O)c2sc3nc(OCc4ccncc4)cc(C)c3c2N)cc1 | HRH3 (Homo sapiens, UniProt Q9Y5N1) | receptor activity, antagonist |  |  | ~10 µM |

Excerpt of the above:
| Compound | target | test | system | setting | IC50 |
| --- | --- | --- | --- | --- | --- |
| CC(C)C(O)C(NC(=O)[C@H](Cc1ccc(O)cc1)NC(=O)C(Cc1ccc(O)cc1)[N+](C)(C)C)C(=O)N[C@@H](C)C(=O)O (some centres unmarked) | ACE (Homo sapiens, UniProt P12821) | enzyme activity, inhibitor |  |  | > 10 µM |
| CCN(CC)c1ccc(-c2nc3ccc(C)c(S(=O)(=O)O)c3s2)cc1 | Genome polyprotein NS3 helicase domain | helicase activity, inhibitor, MBHA |  |  | 33 ± 24 µM |
